{"data": "Results pooled from the literature", "PIK3CA with p85 alpha": "Phosphatidylinositol 4,5-bisphosphate 3-kinase catalytic subunit alpha isoform, with p85 alpha (PIK3CA, Homo sapiens, UniProt P42336)", "UCHL1": "Ubiquitin carboxyl-terminal hydrolase isozyme L1 (UCHL1, Homo sapiens, UniProt P09936)", "note": "Protocols differ between the studies behind these lines.", "sequence of UniProt P09936 (whole entry, looked up)": "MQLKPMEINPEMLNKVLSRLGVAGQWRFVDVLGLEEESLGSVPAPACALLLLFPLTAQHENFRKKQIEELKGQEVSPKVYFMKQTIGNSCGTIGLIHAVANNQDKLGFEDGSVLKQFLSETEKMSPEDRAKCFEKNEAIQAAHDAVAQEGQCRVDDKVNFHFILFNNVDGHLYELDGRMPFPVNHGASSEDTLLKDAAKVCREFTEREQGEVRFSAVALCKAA"}
{"Compound": "Cc1ccc(NC(=O)c2ccc(C)c(C(F)(F)F)c2)cc1C#Cc1nn(C2CCC(O)CC2)c2ncnc(N)c12 (centres unmarked)", "target": "PIK3CA with p85 alpha", "test": "enzyme activity, inhibitor", "setting": "10 µM, p110a/p85a)(h human, together with: ATP 10 µM", "quantity": "remaining activity", "value": "79%"}
{"Compound": "COc1cc(-c2cncc3c2CN(C)Cc2cc(N4CCNCC4)ccc2-3)cc(OC)c1OC", "target": "Phosphatidylinositol 4,5-bisphosphate 3-kinase catalytic subunit alpha isoform, with p85 alpha (PIK3CA, Homo sapiens, UniProt P42336, E542K)", "test": "kinase activity", "setting": "1 µM, p110a(E542K)/p85a)(h human, together with: ATP 10 µM", "how to read": "baseline: DMSO", "quantity": "remaining activity", "value": "100%"}
{"Compound": "[2H]c1cc(C)c(NC(=O)c2cnc(Nc3cc(N4CCCCC4)nc(C)n3)s2)c(Cl)c1", "target": "Phosphatidylinositol 4,5-bisphosphate 3-kinase catalytic subunit alpha isoform, with PIK3R1 (PIK3CA, Homo sapiens, UniProt P42336)", "setting": "0.01 µM", "quantity": "inhibition", "value": "30 to 90%"}
{"Compound": "COc1cc(CN(C(=O)CCl)C2CCCOC2)ccc1C (centres unmarked)", "target": "UCHL1", "test": "covalent, intact protein LC-MS", "setting": "12.5 µM", "quantity": "labelling", "value": "9.93%"}
{"Compound": "O=C(NC1CCC1)c1ccc2nc(-c3cccc(NS(=O)(=O)NCCN4CCCCC4)c3)cn2c1", "target": "PIK3CA (Homo sapiens, UniProt P42336, E545K)", "test": "enzyme activity", "setting": "10 µM", "quantity": "remaining activity", "value": "75%"}
{"Compound": "COc1nc(N)nc(Cl)n1", "target": "UCHL1", "test": "covalent, intact protein LC-MS", "setting": "12.5 µM", "quantity": "labelling", "value": "27.6%"}
{"Compound": "Cc1nc(NC(=O)N2CCCC2)sc1-c1csc(C(C)(C)C)n1", "target": "PIK3CA (Homo sapiens, UniProt P42336, Q859A)", "setting": "3 µM", "how to read": "baseline: wild type", "quantity": "inhibition difference", "value": "9%"}
{"Compound": "O=C(CSc1nc2nccnc2c(=O)n1CCc1ccccc1)Nc1nccs1", "target": "PIK3CA with p85 alpha", "test": "kinase activity, inhibitor", "setting": "10 µM, together with: PIK3R1 complex", "quantity": "inhibition", "value": "27%"}
{"Compound": "C=CC(=O)N1CCC(COCC(=O)N2CCN(c3nc(-c4cnc(N)nc4C(F)F)nc(N4CCOC[C@@H]4C)n3)CC2)CC1", "target": "PIK3CA (Homo sapiens, UniProt P42336, H1047Y)", "test": "KINOMEscan", "setting": "1 µM", "quantity": "remaining binding", "value": "0.15%"}
{"Compound": "CN(C)C1CCN(CC#Cc2nn(C3CCCC3)c3nc(NCc4ccccc4)ncc23)C1 (centres unmarked)", "target": "PIK3CA with p85 alpha", "test": "enzyme activity, inhibitor, Z'-LYTE", "setting": "1000 nM", "quantity": "inhibition", "value": "4%"}
{"Compound": "CN1CC(Oc2cnc(C#N)cc2-c2ccn3nc(NC(=O)C4CC4)cc3c2)C1", "target": "PIK3CA with p85 alpha", "test": "inhibitor, KinaseProfiler panel", "setting": "1 µM", "quantity": "inhibition", "value": "0%"}
{"Compound": "COc1cc(Cl)c(C(=O)N[C@@H](CN[C@H]2CC[C@@H](N)CC2)Cc2ccc(C#N)cc2)cc1-c1ccc(CN[C@H](C)c2ccc(C)cc2)o1", "target": "PIK3CA with p85 alpha", "test": "enzyme activity, KinaseProfiler panel", "setting": "1 µM", "quantity": "remaining activity", "value": "96%"}
{"Compound": "C=CC(=O)Nc1cc(Nc2nccc(Nc3cc(Cl)c(F)cc3C(C)(C)O)n2)c(OC)cc1N1CC[C@@H](N(C)C)C1", "target": "PIK3CA with p85 alpha", "test": "kinase activity, inhibitor", "setting": "1 µM", "quantity": "inhibition", "value": "0%"}
{"Compound": "CS(=O)(=O)Nc1cccc(-c2csc(NC(=O)CSc3nc4nccnc4c(=O)n3CCc3ccccc3)n2)c1", "target": "PIK3CA with p85 alpha", "test": "kinase activity, inhibitor", "setting": "10 µM, together with: PIK3R1 complex", "quantity": "inhibition", "value": "9%"}
{"note": "A few entries again:"}
{"Compound": "C=CC(=O)N1CCC(COCC(=O)N2CCN(c3nc(-c4cnc(N)nc4C(F)F)nc(N4CCOC[C@@H]4C)n3)CC2)CC1", "target": "PIK3CA (Homo sapiens, UniProt P42336, H1047Y)", "test": "KINOMEscan", "setting": "1 µM", "quantity": "remaining binding", "value": "0.15%"}
